Published values collected from several papers.
Each numbered part is a random draw from the data of one study; scales do not carry over between parts. Positions count from the first letter of the parent shown.

Series 1
Target: RNA binding protein fox-1 homolog 2, RRM domain, GST-SBP tag (RBFOX2, Homo sapiens, UniProt O43251-10, residues 100-194)
Technique: RNA Bind-n-Seq
Form: RNA
Matrix: in vitro
Concentration: 365 nM
Setting: natural RNA segment, single round, ends assumed
Baseline: no-protein control
Direction: higher = stronger binding
Construct (chain): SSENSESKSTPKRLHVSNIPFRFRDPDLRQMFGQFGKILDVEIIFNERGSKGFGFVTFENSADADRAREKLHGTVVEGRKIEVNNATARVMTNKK
`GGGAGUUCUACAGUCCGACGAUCUCUUAAUUUUUCUCCCUUCUUUCUUUUUUUGGCUUUGGGAAAAGCAUCAUUUUACCAAACAUACCGAGAACGAAAACUUCAAGGAUGAUGUUAGAAAAAAAUGUGAUUUAUGGAAUUCUCGGGUGCCAA` — result for “RBNS enrichment (R)”: 0.749.
`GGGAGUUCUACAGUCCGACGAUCGAACCUUUCCCCUGCUAUCUCCCUUCCUGCUUCGAAGGACUCAUUCUUUCCUCCCACUUCCACCCCAACAUAGAGUAGUAUUUGCUUUUUAGUCCAUUUUGUUUUCAAUAUGGAAUUCUCGGGUGCCAA`: “RBNS enrichment (R)” 1.12.
`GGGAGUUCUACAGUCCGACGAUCCAAGCCCCUUGAAGGUUUGGAUGGGAUGAGAUGGACAGUUACUGUAAUGAAGGACAAAGGGAACCAGGGACGGGGAGGAGGCAUAGUCUGUGGUGACAGACAAUGCUAAGUGGAAUUCUCGGGUGCCAA` — result for “RBNS enrichment (R)”: 0.767.
`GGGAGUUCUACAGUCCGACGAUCUUUUGAGGAUAGGUGAGGCCUGAAUUCCUGUCCUUAUUUCUUCUGACCAGAAGUUGCACAGACAUGAUUUGUGCUGGAGUCAAGGGGCAGAACAGAAGAAUCUGACAGGCUGGAAUUCUCGGGUGCCAA`: “RBNS enrichment (R)” 0.525.
`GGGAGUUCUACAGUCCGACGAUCACAGCUGACAUGCCUCACUCAGAGAGGGGAAAGGCACUGGGCAGCCUUGAAGGAAGCCCUUCUCUCCCAGACCAAGACAAAGCAGAUUGCAUAGAGGUUCAAGUUCAAAGUGGAAUUCUCGGGUGCCAA` — result for “RBNS enrichment (R)”: 0.384.
For `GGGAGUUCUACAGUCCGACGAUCUCCCUUGGAGGCUCAGAGCAGCUGGCCCAAGCUGCAGCUCGUCUCCAGUGGAGGCUUGAAUGCCCUCAGAAACGACCCUGGCCAAUGUCACCGCAGAGCCGAGGCGGUGUUGGAAUUCUCGGGUGCCAA`, “RBNS enrichment (R)” read 0.573.
Under “RBNS enrichment (R)”, `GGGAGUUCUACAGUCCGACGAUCUAACCUUGUAGCAUGUGAAGAAUGUCUGUACCUUGAUACGAUAGUUACAUAAUCAGUAUAUUUGGUUUCUAGAUCACUGUGCUUAUUUUGUUUCAAUCUCUGACUAAAAAUGGAAUUCUCGGGUGCCAA` is recorded as 4.76.
`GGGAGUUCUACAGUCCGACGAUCAGCCAACUUGUGUUCUGGGUUUGAAAAAGACCCACCACAAAUGCUUUUUCUAUUUUCUGAUUUAAAAGUCGCUUUUGAAUAUGACCAUGAGAAACCAAGAAAUGCUGCUUUGGAAUUCUCGGGUGCCAA` — result for “RBNS enrichment (R)”: 0.718.
`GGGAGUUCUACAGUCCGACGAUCAAACAAUCCCCAUCAGGUAGUUGUCCAACCCCCAGCUGGGUUCAACCCUCUCAUUACCCACCUGACCUAGCUGUCCCCUUACUGUGGGCUGGGGGACUUGGGGGCCAUUUUGGAAUUCUCGGGUGCCAA`: “RBNS enrichment (R)” 0.372.
Under “RBNS enrichment (R)”, `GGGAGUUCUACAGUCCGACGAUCCAACACUAAUUUAUUUUGUCUUGAGUUUUACUACAAGAUGAGACUAUGGAUCCCGCAUGCCUGAAUUCACUAAAGCCAAGGGUCUGUAAGCCACGCUGCUCUUCCGAGACUGGAAUUCUCGGGUGCCAA` is recorded as 0.489.
`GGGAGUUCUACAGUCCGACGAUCUCUGGGCACAGAUUCUGGUGGCUCCCUGCUGGCCCUCUUGGGCCUCUGCUCACACCUGGGAAGGGGCUCUCUAAAUCCCGGCCAGAAACUCUGACUUGUGCCAACAAUAGUGGAAUUCUCGGGUGCCAA`: “RBNS enrichment (R)” 0.31.
`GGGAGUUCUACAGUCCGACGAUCCCUCCUCAUUCUCUUUUGCCAUUGGAAUGUCCCCUUGCAGUUCUCUUCUCUUUUUUUUUUUUUUUGAGAUGGAGUUUCACUCUUGCUGCCCAGGCUGGAGUGCAGUGGCUUGGAAUUCUCGGGUGCCAA` — result for “RBNS enrichment (R)”: 0.881.

Series 2
Target: Interferon regulatory factor 5, full length, phosphomimetic (IRF5, Homo sapiens, UniProt Q13568-2, residues 1-514, S451D/S453D/S456D/S462D)
Technique: protein-binding microarray
Form: double-stranded DNA, one strand shown
Matrix: in vitro
Concentration: 940 nM top
Setting: 60-bp whole probe
Added: salmon DNA 0.4 mg/ml
Baseline: random background probes
Direction: higher = stronger binding
Constant ends, left off below: GCCTAGCAC … GTCTTGATTCGCTTGACGCTGCTG
For `TTAGGTTTCGGGTATCGGTAAGTGCTA`, “fitted relative affinity” read 11.4 z-score.
For `TTAGATATCACTTTCGATTAGTGCTAG`, “fitted relative affinity” read 4.83 z-score.
`GACGGTATCGTTCTCGGGACGTGCTAG`: “fitted relative affinity” 4.46 z-score.
`GACGGACTGGACTTTCGAGACGTGCTA`: “fitted relative affinity” 0.0527 z-score.
Under “fitted relative affinity”, `TCACTTCCCAATTGTCTTACTGTGCTA` is recorded as 1.19 z-score.
`GACGGTCTCGTTCTCGGGACGTGCTAG` — result for “fitted relative affinity”: 2.29 z-score.
`GACGGTTTCGGGTATCGGGTCGTGCTA`: “fitted relative affinity” 10.7 z-score.
For `GACGGTATCGGGTATCGGCACGTGCTA`, “fitted relative affinity” read 5.63 z-score.
For `GACGGTTCCCTTTTCCTCACGTGCTAG`, “fitted relative affinity” read 0.649 z-score.
`TTAGGACTGGGTATTGGTTAGTGCTAG`: “fitted relative affinity” 0.11 z-score.
`GACGAACTGGGGTTTCGGGACGTGCTA`: “fitted relative affinity” 1.98 z-score.
`TTAGATCTCATTCTCGATTAGTGCTAG` — result for “fitted relative affinity”: 3.01 z-score.
`GACGCTTTCGGGTTTCGGGACGTGCTA`: “fitted relative affinity” 4.3 z-score.
For `TCACTACTGCATTTTTTACTGTGCTAG`, “fitted relative affinity” read 0.917 z-score.
For `TTCTCTTTCACTGCTGCCCTGTGCTAG`, “fitted relative affinity” read 2.62 z-score.
`GACGGACTGCTTCTCCTAACGTGCTAG`: “fitted relative affinity” -0.229 z-score.
For `TCATTTTTGCAAGCTAAAACTGTGCTA`, “fitted relative affinity” read -0.281 z-score.
For `TCAGCATACCATATCAGACTGTGCTAG`, “fitted relative affinity” read -0.0819 z-score.
`GTAAGTTTCACTTTCCAAAGGTGCTAG` — result for “fitted relative affinity”: 8.08 z-score.

Series 3
Target: CCNA2, cyclin fold, Cln2 fusion (human)
Technique: yeast growth competition, sequencing
Matrix: yeast
Setting: strong parent motif
Baseline: not given
Direction: higher = stronger binding
Parent: USP37 docking peptide (human); PSAKRSLGFLPQP
`PSAKRSLGALPQP [F9A]`: “normalised enrichment score” 0.147.
`PSAKRSLGFLAQP [P11A]`: “normalised enrichment score” 1.87.
For `PSAKRSLGFLPQA [P13A]`, “normalised enrichment score” read 1.95.
`PSAKRSLGFLPAP [Q12A]`: “normalised enrichment score” 2.84.
Under “normalised enrichment score”, `PSAKRSLGFAPQP [L10A]` is recorded as 2.94.
`PSAKRALGFLPQP [S6A]` — result for “normalised enrichment score”: 1.94.

Series 4
Target: UBE2L3 UBC core domain (UniProt P68036)
Chain of UniProt P68036 (whole entry, looked up): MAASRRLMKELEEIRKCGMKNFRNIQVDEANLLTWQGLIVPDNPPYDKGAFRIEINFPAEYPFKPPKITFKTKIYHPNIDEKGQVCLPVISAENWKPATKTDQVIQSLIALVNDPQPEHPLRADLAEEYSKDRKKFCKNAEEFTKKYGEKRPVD
Technique: yeast two-hybrid
Matrix: yeast
Setting: mostly zero background
Baseline: not given
Direction: higher = stronger interaction
B1: MYCBP2 RING domain (UniProt O75592); chain TSLKQDADDMCMICFTEALSAAPAIQLDCSHIFHLQCCRRVLENRWLGPRITFGFISCPICKNKINHIVLKD
B2: TRIM54 RING domain (UniProt Q9BYV2); chain SMDNLEKQLICPICLEMFSKPVVILPCQHNLCRKCANDVFQASNPLWQSRGSTTVSSGGRFRCPSCRHEVVLDRHGV
B3: DEF8 RING domain (UniProt Q6ZN54); chain AGRLGCSLTEIHTLFAKHIKLDCERCQAKGFVCELCREGDVLFPFDSHTSVCADCSAVFHRDCYYDNSTTCPKCARLSLRK
B4: TRIM60 RING domain (UniProt Q495X7); chain ALVNLQEESSCPICLEYLKDPVTINCGHNFCRSCLSVSWKDLDDTFPCPVCRFCFPYKSFRR
B5: RNF187 RING domain (UniProt Q5TA31); chain ALPAGPAEAACALCQRAPREPVRADCGHRFCRACVVRFWAEEDGPFPCPECADDCWQRAVEP
B6: RNF2 RING domain (UniProt Q99496); chain SPRSLHSELMCPICLDMLKNTMTTKECLHRFCADCIITALRSGNKECPTCRKKLVSKRSLR
B7: RNF122 RING domain (UniProt Q9H9V4); chain AKKLQLYGQTCAVCLEDFKGKDELGVLPCQHAFHRKCLVKWLEVRCVCPMCNKPIASPSEAT
B8: RNF166 RING domain (UniProt Q96A37); chain GDSGLEAQYTCPICLEVYHRPVAIGSCGHTFCGECLQPCLQVPSPLCPLCRLPFDPKKVDK
B9: RNF152 RING domain (UniProt Q8N8N0); chain ETLSQDSLLECQICFNYYSPRRRPKLLDCKHTCCSVCLQQMRTSQKDVRCPWCRGVTKLPPGFS
B10: MEX3B RING domain (UniProt Q6ZN04); chain SGLRRKGSRDCSVCFESEVIAALVPCGHNLFCMECANRICEKSEPECPVCHTAVTQAIRIF
Under “lacZ reporter activity”, `YCEMGSTFQLCKICAENDKDVKIEPCGHLMCTSCLTAWQESDGQGCPFCRCEIKGTEPII (CBLB RING domain (UniProt Q13191))` is recorded as 0.
`B1 (MYCBP2 RING domain)` — result for “lacZ reporter activity”: 0.
`AEADPLGRFTCPVCLEVYEKPVQVPCGHVFCSACLQECLKPKKPVCGVCRSALAPGVRAV (RNF114 RING domain (UniProt Q9Y508))` — result for “lacZ reporter activity”: 0.
`KPDKMEETLTCIICQDLLHDCVSLQPCMHTFCAACYSGWMERSSLCPTCRCPVERICKNH (CHFR RING domain (UniProt Q96EP1))` — result for “lacZ reporter activity”: 0.
`QVQSRTKIEECVVCSDKKAAVLFQPCGHMCACENCANLMKKCVQCRAVVERRVPFI (MIB1 RING domain (UniProt Q86YT6))` — result for “lacZ reporter activity”: 0.
Under “lacZ reporter activity”, `B2 (TRIM54 RING domain)` is recorded as 0.
`B3 (DEF8 RING domain)` — result for “lacZ reporter activity”: 0.
`B4 (TRIM60 RING domain)`: “lacZ reporter activity” 0.
For `B5 (RNF187 RING domain)`, “lacZ reporter activity” read 0.
`B6 (RNF2 RING domain)` — result for “lacZ reporter activity”: 0.
For `B7 (RNF122 RING domain)`, “lacZ reporter activity” read 0.
`MNDVLENELQCIICSEYFIEAVTLNCAHSFCSYCINEWMKRKIECPICRKDIKSKTYSL (RNF8 RING domain (UniProt O76064))`: “lacZ reporter activity” 0.
`B8 (RNF166 RING domain)` — result for “lacZ reporter activity”: 0.
Under “lacZ reporter activity”, `B9 (RNF152 RING domain)` is recorded as 0.
`PEELAVNNDDCAICWDSMQAARKLPCGHLFHNSCLRSWLEQDTSCPTCRMSLNIADNNR (AMFR RING domain (UniProt Q9UKV5))` — result for “lacZ reporter activity”: 0.
`YPEEVDDDLICHICLQALLDPLDTPCGHTYCTLCLTNFLVEKDFCPMDRKPLVLQHCKK (LNX1 RING domain (UniProt Q8TBB1))` — result for “lacZ reporter activity”: 0.
`LGTKLEAKYLCSACRNVLRRPFQAQCGHRYCSFCLASILSSGPQNCAACVHEGIYEEGIS (TRAF2 RING domain (UniProt Q12933))`: “lacZ reporter activity” 0.
For `B10 (MEX3B RING domain)`, “lacZ reporter activity” read 0.

For quick reference, copied from above (series 1):
`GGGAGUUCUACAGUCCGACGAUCUCUUAAUUUUUCUCCCUUCUUUCUUUUUUUGGCUUUGGGAAAAGCAUCAUUUUACCAAACAUACCGAGAACGAAAACUUCAAGGAUGAUGUUAGAAAAAAAUGUGAUUUAUGGAAUUCUCGGGUGCCAA` — result for “RBNS enrichment (R)”: 0.749.
`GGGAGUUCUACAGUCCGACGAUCGAACCUUUCCCCUGCUAUCUCCCUUCCUGCUUCGAAGGACUCAUUCUUUCCUCCCACUUCCACCCCAACAUAGAGUAGUAUUUGCUUUUUAGUCCAUUUUGUUUUCAAUAUGGAAUUCUCGGGUGCCAA`: “RBNS enrichment (R)” 1.12.
`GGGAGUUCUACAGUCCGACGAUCCAAGCCCCUUGAAGGUUUGGAUGGGAUGAGAUGGACAGUUACUGUAAUGAAGGACAAAGGGAACCAGGGACGGGGAGGAGGCAUAGUCUGUGGUGACAGACAAUGCUAAGUGGAAUUCUCGGGUGCCAA` — result for “RBNS enrichment (R)”: 0.767.
`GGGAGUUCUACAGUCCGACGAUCUUUUGAGGAUAGGUGAGGCCUGAAUUCCUGUCCUUAUUUCUUCUGACCAGAAGUUGCACAGACAUGAUUUGUGCUGGAGUCAAGGGGCAGAACAGAAGAAUCUGACAGGCUGGAAUUCUCGGGUGCCAA`: “RBNS enrichment (R)” 0.525.
`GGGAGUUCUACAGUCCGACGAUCACAGCUGACAUGCCUCACUCAGAGAGGGGAAAGGCACUGGGCAGCCUUGAAGGAAGCCCUUCUCUCCCAGACCAAGACAAAGCAGAUUGCAUAGAGGUUCAAGUUCAAAGUGGAAUUCUCGGGUGCCAA` — result for “RBNS enrichment (R)”: 0.384.
